Published values gathered from unrelated publications.
Every numbered part comes from another study and shows a few of its results, in no order. Positions count from the first letter of the parent shown.
Sequence of UniProt P08069 (whole entry, looked up): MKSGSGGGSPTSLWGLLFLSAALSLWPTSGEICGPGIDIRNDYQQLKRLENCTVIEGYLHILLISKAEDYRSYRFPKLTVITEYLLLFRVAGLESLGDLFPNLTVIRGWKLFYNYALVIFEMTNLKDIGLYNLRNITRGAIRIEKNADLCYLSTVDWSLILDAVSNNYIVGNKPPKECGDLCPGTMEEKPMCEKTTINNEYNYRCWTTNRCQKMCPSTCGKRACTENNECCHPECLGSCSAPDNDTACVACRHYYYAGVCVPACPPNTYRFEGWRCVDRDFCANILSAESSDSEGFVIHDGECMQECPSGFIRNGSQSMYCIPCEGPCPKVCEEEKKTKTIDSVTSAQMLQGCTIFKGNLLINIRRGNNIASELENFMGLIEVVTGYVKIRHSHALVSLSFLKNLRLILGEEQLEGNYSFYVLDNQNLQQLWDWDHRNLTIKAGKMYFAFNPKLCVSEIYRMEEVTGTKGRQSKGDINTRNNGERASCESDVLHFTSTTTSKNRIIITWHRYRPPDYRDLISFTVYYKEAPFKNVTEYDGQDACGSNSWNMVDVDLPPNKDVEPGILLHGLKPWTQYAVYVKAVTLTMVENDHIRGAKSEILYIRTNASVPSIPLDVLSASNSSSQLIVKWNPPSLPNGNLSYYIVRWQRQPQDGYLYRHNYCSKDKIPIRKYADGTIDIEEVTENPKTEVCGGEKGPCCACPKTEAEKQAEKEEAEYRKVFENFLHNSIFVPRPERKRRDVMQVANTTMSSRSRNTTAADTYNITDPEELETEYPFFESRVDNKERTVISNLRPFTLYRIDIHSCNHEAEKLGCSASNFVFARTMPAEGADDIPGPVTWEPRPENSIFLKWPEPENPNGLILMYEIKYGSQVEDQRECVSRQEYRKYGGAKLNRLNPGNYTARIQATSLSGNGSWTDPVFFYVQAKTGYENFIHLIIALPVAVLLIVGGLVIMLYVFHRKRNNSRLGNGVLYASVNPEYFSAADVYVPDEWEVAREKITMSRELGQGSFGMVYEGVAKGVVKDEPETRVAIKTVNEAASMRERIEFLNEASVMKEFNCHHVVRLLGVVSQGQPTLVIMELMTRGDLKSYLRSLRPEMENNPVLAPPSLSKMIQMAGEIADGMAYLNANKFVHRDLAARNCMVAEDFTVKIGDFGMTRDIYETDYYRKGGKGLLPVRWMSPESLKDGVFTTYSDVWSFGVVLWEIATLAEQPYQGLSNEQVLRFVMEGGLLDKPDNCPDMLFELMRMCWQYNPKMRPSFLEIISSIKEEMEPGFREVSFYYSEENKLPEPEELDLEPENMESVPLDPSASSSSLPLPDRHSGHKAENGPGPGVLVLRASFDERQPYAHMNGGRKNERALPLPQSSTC
Sequence of UniProt Q06418 (whole entry, looked up): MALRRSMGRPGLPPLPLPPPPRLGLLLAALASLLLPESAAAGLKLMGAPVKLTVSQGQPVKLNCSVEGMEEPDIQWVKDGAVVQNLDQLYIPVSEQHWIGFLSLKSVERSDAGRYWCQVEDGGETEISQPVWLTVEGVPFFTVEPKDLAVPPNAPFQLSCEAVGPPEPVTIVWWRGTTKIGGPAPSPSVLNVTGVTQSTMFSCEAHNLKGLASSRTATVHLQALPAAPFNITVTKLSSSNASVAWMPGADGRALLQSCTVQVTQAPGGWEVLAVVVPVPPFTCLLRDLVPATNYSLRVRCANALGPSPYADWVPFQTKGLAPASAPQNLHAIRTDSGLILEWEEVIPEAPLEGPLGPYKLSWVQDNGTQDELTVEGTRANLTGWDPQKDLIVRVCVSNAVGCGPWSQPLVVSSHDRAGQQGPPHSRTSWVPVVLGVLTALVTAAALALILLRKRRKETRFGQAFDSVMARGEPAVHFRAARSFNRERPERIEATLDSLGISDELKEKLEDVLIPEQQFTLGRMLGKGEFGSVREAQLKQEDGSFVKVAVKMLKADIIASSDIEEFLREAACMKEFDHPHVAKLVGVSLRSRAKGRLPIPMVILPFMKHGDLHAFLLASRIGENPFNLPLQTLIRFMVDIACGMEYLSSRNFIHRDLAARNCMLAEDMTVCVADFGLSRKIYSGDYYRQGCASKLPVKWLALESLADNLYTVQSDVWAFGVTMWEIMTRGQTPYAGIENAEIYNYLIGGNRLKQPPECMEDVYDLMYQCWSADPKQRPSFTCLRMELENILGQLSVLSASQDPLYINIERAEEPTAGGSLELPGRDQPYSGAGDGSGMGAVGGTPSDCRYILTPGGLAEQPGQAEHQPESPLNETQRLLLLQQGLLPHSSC
Sequence of UniProt P23458 (whole entry, looked up): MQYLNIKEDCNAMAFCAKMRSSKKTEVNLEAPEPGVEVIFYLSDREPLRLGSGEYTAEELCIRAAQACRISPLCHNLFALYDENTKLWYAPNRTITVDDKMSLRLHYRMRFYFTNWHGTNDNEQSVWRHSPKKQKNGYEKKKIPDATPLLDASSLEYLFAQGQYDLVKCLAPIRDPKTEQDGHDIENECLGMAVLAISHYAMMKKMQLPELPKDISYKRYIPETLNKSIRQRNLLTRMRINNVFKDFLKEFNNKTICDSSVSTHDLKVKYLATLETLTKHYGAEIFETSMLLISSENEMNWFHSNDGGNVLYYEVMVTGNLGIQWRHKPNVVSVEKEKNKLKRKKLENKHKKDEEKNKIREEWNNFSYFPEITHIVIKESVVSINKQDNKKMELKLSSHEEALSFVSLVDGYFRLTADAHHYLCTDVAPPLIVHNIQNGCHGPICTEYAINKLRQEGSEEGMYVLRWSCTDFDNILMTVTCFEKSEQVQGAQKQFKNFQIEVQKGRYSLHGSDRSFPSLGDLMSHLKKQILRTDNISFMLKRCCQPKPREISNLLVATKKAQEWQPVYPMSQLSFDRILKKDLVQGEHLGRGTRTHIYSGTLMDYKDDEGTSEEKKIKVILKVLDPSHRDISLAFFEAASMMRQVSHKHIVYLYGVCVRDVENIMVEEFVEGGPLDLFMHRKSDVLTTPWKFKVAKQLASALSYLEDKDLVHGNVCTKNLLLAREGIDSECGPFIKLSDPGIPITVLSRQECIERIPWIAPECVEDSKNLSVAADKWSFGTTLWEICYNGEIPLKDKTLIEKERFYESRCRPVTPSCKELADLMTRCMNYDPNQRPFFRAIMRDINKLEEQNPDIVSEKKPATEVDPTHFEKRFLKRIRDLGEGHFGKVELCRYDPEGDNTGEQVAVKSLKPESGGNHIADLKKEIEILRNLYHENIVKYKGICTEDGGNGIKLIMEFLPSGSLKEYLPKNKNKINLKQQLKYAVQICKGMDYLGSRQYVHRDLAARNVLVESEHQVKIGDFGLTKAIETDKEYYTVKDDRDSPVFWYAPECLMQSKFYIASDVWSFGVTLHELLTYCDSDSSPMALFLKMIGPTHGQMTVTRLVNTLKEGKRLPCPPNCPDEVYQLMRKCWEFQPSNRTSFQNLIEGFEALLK
Sequence of UniProt P49760 (whole entry, looked up): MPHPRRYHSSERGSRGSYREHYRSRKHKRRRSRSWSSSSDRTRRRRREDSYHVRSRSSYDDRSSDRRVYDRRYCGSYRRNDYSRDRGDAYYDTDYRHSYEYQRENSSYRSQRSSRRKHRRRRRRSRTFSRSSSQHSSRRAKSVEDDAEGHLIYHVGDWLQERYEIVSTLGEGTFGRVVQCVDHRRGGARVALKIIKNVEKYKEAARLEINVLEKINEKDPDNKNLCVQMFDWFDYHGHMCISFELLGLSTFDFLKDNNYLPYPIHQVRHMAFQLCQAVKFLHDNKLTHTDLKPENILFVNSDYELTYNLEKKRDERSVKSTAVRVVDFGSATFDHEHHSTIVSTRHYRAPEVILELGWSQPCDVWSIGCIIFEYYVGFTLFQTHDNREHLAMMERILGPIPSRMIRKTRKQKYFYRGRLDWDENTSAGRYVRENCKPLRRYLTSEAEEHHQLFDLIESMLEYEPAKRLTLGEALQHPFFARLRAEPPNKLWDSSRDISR
Sequence of UniProt Q9UBF8 (whole entry, looked up): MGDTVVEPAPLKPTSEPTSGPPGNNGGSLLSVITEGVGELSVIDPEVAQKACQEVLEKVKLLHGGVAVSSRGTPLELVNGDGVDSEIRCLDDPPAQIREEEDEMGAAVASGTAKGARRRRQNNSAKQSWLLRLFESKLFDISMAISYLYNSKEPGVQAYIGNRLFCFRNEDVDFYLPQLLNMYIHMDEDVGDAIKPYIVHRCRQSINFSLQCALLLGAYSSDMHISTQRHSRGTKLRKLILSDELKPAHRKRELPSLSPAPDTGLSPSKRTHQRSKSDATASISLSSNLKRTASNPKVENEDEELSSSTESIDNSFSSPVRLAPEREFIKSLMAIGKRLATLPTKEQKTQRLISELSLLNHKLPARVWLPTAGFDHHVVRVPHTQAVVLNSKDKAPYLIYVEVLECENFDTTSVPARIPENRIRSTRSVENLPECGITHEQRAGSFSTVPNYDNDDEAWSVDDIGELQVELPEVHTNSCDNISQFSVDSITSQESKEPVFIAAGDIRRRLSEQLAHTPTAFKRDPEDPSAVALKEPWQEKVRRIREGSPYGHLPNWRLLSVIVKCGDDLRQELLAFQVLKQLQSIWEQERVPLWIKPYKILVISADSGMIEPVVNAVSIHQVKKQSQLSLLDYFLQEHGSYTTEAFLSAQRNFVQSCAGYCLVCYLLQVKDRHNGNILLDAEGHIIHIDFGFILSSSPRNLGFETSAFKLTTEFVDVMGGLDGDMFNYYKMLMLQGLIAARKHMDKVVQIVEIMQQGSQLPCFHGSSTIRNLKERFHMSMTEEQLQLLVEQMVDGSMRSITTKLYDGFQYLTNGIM

Series 1 — read-out: cell-free assay; technique: competition with immobilised ligand; tested at: 1 µM
Compound: O=C(Nc1cccnn1)N1CCC(=Cc2cccc(Oc3ccc(C(F)(F)F)cn3)c2)CC1
| target | remaining binding [%] |
| --- | --- |
| RIPK2 (Homo sapiens, UniProt O43353) | 94 |
| BRAF (Homo sapiens, UniProt P15056) | 93 |
| PAK5 (Homo sapiens, UniProt Q9P286) | 100 |
| DAPK1 (Homo sapiens, UniProt P53355) | 100 |
| CSNK1G1 (Homo sapiens, UniProt Q9HCP0) | 100 |
| ALK (Homo sapiens, UniProt Q9UM73) | 100 |
| PI4KB (Homo sapiens, UniProt Q9UBF8) | 100 |
| EGFR (Homo sapiens, UniProt P00533, G719C) | 100 |
| LRRK2 (Homo sapiens, UniProt Q5S007, G2019S) | 100 |
| GRK2 (Homo sapiens, UniProt P25098) | 100 |
| LATS1 (Homo sapiens, UniProt O95835) | 100 |
| TYRO3 (Homo sapiens, UniProt Q06418) | 100 |
| FES (Homo sapiens, UniProt P07332) | 76 |
| IGF1R (Homo sapiens, UniProt P08069) | 87 |
| PIK3CA (Homo sapiens, UniProt P42336, E545K) | 100 |
| PTK2 (Homo sapiens, UniProt Q05397) | 100 |
| Tyrosine-protein kinase JAK1, JH2 (JAK1, Homo sapiens, UniProt P23458) | 100 |

Series 2 — target: CEP164, C-terminal peptide (human); technique: DHFR complementation, deep sequencing; sample: yeast; reference: wild type; reading: higher = weaker binding
Setting: single substitutions, model-inferred values
Starting sequence: PDZK1, PDZ domain 2 (human); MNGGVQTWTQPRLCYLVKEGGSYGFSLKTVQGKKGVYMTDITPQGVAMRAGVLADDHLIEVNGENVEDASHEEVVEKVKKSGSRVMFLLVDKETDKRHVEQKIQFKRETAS; partner HNRVKVYRF
| Substitution | binding free energy change [kcal/mol] |
| --- | --- |
| Q44P | 0.643 |
| E100Y | -0.0825 |
| G20F | 0.348 |
| M38V | 0.342 |
| E76C | 0.167 |
| T39F | 0.317 |
| M48P | 1.66 |
| I41V | 0.281 |

Series 3 — read-out: enzyme activity; action: inhibitor; tested at: 0.5 µM; reference: control
Compound: CN(C)S(=O)(=O)c1ccc2c(c1)/C(=C/c1cc3c([nH]1)CCCC3)C(=O)N2
| target | remaining activity [%] |
| --- | --- |
| JAK1 (Homo sapiens, UniProt P23458) | 66.8 |
| CLK1 (Homo sapiens, UniProt P49759) | 82.6 |
| MUSK (Homo sapiens, UniProt O15146) | 82.8 |
| FLT1 (Homo sapiens, UniProt P17948) | 84.9 |
| EPHA2 (Homo sapiens, UniProt P29317) | 96.5 |
| TYRO3 (Homo sapiens, UniProt Q06418) | 57.2 |
| SIK2 (Homo sapiens, UniProt Q9H0K1) | 86.4 |
| CLK2 (Homo sapiens, UniProt P49760) | 32.1 |
| PAK6 (Homo sapiens, UniProt Q9NQU5) | 98.9 |
| PAK1 (Homo sapiens, UniProt Q13153) | 96.1 |
| IGF1R (Homo sapiens, UniProt P08069) | 89.5 |
| RPS6KA3 (Homo sapiens, UniProt P51812) | 70.1 |

Series 4 — technique: protein binding microarray; molecule type: double-stranded DNA, one strand shown; sample: in vitro; tested at: not given; reference: not given; reading: higher = stronger binding
Target: Histone acetyltransferase KAT6A, winged helix 2, GST fusion (KAT6A, Homo sapiens, UniProt Q92794, residues 85-181)
Setting: 8-mer, flanks averaged, mean of 2 arrays, mostly near background
Construct (chain): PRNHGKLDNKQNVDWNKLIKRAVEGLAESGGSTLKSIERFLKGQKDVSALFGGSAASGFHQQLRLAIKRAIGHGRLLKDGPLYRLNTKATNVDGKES
| Sequence | E-score |
| --- | --- |
| AGCGAACC | -0.00406 |
| ATGCTCAC | -0.0226 |
| AAAACCAT | -0.0612 |
| GGCTGATA | 0.0564 |
| GAACACTC | 0.153 |
| GGCGTAAA | -0.0769 |
| ACGAGGGC | -0.00637 |
| GAACCACC | -0.0411 |

For quick reference, copied from above (series 3):
| target | remaining activity [%] |
| --- | --- |
| JAK1 (Homo sapiens, UniProt P23458) | 66.8 |
| CLK1 (Homo sapiens, UniProt P49759) | 82.6 |
| MUSK (Homo sapiens, UniProt O15146) | 82.8 |
| FLT1 (Homo sapiens, UniProt P17948) | 84.9 |
